Results from different studies.
Parts stem from different laboratories: compare values within a part only. Changes are numbered by the printed parent chain.

Series 1
Target: CCNB2, cyclin fold, Cln2 fusion (human)
Technique: yeast growth competition, sequencing
Medium: yeast
Setting: weak parent motif
Reference: not given
Reading: higher = stronger binding
Parent: CDKN1B docking peptide (human); PSACRNLFGPVDH
Substitution	normalised enrichment score
PSACRVLFGPVDH [N6V]	0.211
PSACRNKFGPVDH [L7K]	0.176
PSACRNLFGTVDH [P10T]	0.0485
PSACRNLFGVVDH [P10V]	-0.0566
PSACRNLFGPRDH [V11R]	0.0818
PSACRKLFGPVDH [N6K]	0.407
PSACRLLFGPVDH [N6L]	0.187
PSACGNLFGPVDH [R5G]	-0.535
PSRCRNLFGPVDH [A3R]	0.659
PSARRNLFGPVDH [C4R]	0.693
PRACRNLFGPVDH [S2R]	0.266
PSACRNLFGPVDE [H13E]	-0.204
PSACRNLFGSVDH [P10S]	-0.13
PSACRNLFGGVDH [P10G]	0.0795
ASACRNLFGPVDH [P1A]	0.135
PSACRHLFGPVDH [N6H]	-0.114

Series 2
Target: Prothrombin, mature alpha-thrombin (F2, Homo sapiens, UniProt P00734)
Technique: aptamer microarray, sandwich
Molecule type: DNA with 2'F-ANA
Medium: in vitro
Concentration: 200 nM
Setting: whole 15-mer aptamer, many near background
Together with: Cy3 exosite-II aptamer, 400 nM
Reading: higher = stronger binding
Strand: GGTTGGTGTGGTTGG
Modification	mean fluorescence intensity [a.u.]
2'F-ANA at 2 7 9 10 11 12 15	159
2'F-ANA at 1 2 5 6 8 9 11	72.8
2'F-ANA at 1 3 4 6 15	189
2'F-ANA at 1 4 5 7 8 10 11 12 15	50.2
2'F-ANA at 4 7 9 10 12 14	102
2'F-ANA at 1 4 5 6 8 9 10 13	48.9
2'F-ANA at 2 6 7 8 9 10 11 12 13	134
2'F-ANA at 3 5 6 8 10 12 13	57.2
2'F-ANA at 4 5 9 10 11 13 14 15	154
2'F-ANA at 2 6 8 9 11 14	158
2'F-ANA at 2 6 8 10 11 12 13 15	139
2'F-ANA at 1 2 3 4 7 10 12 14 15	51
2'F-ANA at 2 3 4 7 8 10 12	365
2'F-ANA at 1 2 3 4 5 6 7 8 9 10 11 12 13 15	59.6
2'F-ANA at 1 2 4 5 6 7 11	51.8
2'F-ANA at 1 2 4 6 10 11 14	54.2
2'F-ANA at 2 3 4 7 9 10 11 12 13 14 15	156
2'F-ANA at 6 11 12 15	569
2'F-ANA at 2 4 5 6 8 9 10 11 12 14 15	50.1
2'F-ANA at 1 2 4 5 6 7 9 10 11 12 13	46.7
2'F-ANA at 4 5 7 8 9 10 11 12 14 15	46
2'F-ANA at 5 7 8 9 11 12	152
2'F-ANA at 1 4 5 6 7 8 9 13 15	48.4
2'F-ANA at 7 9 10 13	172

Series 3
Target: ABI1, truncated, D143A, DHFR fusion (Arabidopsis thaliana)
Technique: DHFR PCA, deep sequencing
Medium: yeast
Setting: methotrexate growth selection, single substitutions
Together with: (+)-ABA 17 µM
Reference: wild-type fitted maximum
Reading: higher = stronger binding
Parent: PYL1, truncated, DHFR fusion (Arabidopsis thaliana); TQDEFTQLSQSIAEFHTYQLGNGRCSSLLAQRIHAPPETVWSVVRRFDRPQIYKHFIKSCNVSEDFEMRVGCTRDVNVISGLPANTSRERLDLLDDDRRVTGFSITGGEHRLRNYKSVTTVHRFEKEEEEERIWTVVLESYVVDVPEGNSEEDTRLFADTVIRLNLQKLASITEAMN
Substitution	relative binding score
L169Y	-9.23%
V78N	20%
M176T	80.4%
W41S	-1.86%
T17D	45.5%
L94R	1.17%
E38I	15%
C60D	3.31%
L164A	80.3%
T1E	85.6%
G108R	-9.99%
N177Q	87.8%
R155Y	6.99%
E38Q	68.6%
L8K	12.9%

Series 4
Target: Myc proto-oncogene protein, bHLH-zipper, MAX partner unstated (MYC, Homo sapiens, UniProt P01106, residues 368-449)
UniProt P01106, sequence (368-449, looked up): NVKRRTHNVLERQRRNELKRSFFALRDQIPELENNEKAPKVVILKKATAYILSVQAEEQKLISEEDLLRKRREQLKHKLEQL
Technique: protein-binding microarray
Molecule type: double-stranded DNA, one strand shown
Medium: in vitro
Concentration: not given
Setting: k-mer, scored over probes, only values ≥0.25
Reading: higher = stronger binding
Strand	E-score
GCGTGACA	0.389
ATGCGCAC	0.341
AGGTACAC	0.264
CCCACGCC	0.391
CGCGTGAA	0.367
CGCGTGTA	0.455
AAGGCACA	0.252
AACACGAT	0.315
ATGCGTCA	0.305
ACGCACGT	0.408
GCATGCTA	0.396
ACGTGGCC	0.413
GCACACGC	0.423
CATGGCGA	0.332
ACGTGGAT	0.437

Series 5
Target: Sal-like protein 4, full length isoform A (SALL4, Homo sapiens, UniProt Q9UJQ4, residues 1-1053)
UniProt Q9UJQ4, sequence (whole entry, looked up): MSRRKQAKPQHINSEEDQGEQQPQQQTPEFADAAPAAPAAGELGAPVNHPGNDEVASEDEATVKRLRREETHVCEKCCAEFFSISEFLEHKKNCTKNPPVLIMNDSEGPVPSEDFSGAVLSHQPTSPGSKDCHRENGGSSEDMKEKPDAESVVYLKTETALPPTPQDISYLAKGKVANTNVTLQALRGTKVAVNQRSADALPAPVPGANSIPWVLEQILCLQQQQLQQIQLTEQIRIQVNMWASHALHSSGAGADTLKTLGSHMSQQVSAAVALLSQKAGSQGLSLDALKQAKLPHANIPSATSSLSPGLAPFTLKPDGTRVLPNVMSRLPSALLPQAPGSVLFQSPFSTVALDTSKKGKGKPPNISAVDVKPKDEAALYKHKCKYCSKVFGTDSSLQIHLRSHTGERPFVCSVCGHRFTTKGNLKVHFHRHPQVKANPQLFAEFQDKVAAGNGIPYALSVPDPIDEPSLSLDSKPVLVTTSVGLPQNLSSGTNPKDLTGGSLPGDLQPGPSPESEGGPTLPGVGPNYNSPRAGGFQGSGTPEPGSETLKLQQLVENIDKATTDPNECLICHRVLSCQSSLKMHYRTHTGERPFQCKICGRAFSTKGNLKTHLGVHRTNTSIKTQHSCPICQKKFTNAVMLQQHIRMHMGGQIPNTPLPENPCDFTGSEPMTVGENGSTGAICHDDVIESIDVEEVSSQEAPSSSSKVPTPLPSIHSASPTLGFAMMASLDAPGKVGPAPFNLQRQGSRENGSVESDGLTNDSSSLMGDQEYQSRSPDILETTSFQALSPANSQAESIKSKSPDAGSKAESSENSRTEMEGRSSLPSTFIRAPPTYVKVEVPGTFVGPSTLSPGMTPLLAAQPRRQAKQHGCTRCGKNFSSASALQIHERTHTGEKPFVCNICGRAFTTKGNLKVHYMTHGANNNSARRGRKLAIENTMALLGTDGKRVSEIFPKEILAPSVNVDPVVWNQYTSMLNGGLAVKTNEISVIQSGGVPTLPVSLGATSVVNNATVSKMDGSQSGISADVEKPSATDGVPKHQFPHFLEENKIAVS
Technique: universal PBM
Molecule type: double-stranded DNA, one strand shown
Medium: in vitro
Concentration: 600 nM
Setting: 8-mer, flanks averaged, mean of replicates
Reading: higher = stronger binding
Strand	E-score
ATATGCGG	0.233
CAATACAG	0.0379
AGATTGCG	0.0396
CGGCAGGA	-0.424
CGGATAAC	-0.034
CCTCAACG	-0.141
CACCTCAC	-0.0609
CTTCTCCC	-0.056
CTGCCACC	-0.25
AATTGCAA	0.271
TAAAGACA	0.0783
GAAACGAA	0.203
TCGGCTAA	-0.0942
CTTTTTGC	-0.117
CTGTCTGC	-0.0996
CTCAAATC	0.0394
AACTGCAC	0.0463
ACTCGTAT	0.096
CAAATATC	0.276
GAACGTTC	-0.186
CCGGGTCG	-0.389
ACTTAGCG	0.0196
CTGCTTTC	-0.0402

Series 6
Target: Ras GTPase-activating protein-binding protein 1, full length (G3BP1, Homo sapiens, UniProt Q13283)
UniProt Q13283, sequence (whole entry, looked up): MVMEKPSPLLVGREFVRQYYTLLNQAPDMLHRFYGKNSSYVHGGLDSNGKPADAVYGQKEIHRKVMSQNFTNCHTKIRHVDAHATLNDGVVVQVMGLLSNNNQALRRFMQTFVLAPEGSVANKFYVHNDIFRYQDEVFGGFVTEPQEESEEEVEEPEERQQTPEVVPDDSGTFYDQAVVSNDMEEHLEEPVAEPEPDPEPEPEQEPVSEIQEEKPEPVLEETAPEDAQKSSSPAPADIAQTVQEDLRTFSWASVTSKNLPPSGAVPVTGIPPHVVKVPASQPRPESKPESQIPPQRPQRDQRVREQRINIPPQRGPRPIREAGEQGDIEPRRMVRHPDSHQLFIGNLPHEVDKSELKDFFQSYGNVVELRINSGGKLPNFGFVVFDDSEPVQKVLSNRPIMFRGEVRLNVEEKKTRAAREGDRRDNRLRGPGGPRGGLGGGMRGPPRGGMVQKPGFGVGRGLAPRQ
Technique: RNA Bind-n-Seq
Molecule type: RNA
Medium: in vitro
Concentration: 200 nM
Setting: whole 134-nt RNA, ends assumed
Together with: 150 mM LiCl
Reference: input library
Reading: higher = stronger binding
Each molecule: 7-deaza-guanosine replaces G
Strand	log2 enrichment
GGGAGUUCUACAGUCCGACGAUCUGGCCCUGGUGGCAUGCGGGGAGGAAGAGGUGGCCUCAUGGAUCGUGGUGGUCCCGGUGGAAUGUUCAGAGGUGGCCGUGGUGGAGAUAGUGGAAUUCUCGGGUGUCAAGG	0.321
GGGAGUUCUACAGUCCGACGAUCAAGUCCUGUGCUACACAUCGUAUGUACCGAAUCGGGUUUUUGGGUUUUUGGGAGGGAAAGUAUUAUGUUACGCCGUUCGGAUCUGCACUUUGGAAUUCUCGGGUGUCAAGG	0.159
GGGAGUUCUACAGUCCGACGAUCUGUGUGCAUUCCCUGCGCCAAGGGCUUCCCCAGCUCUGAGCAGCUCAAUGCGCACGUGGAGACUCACACGGAGGAAGAGCUGUUCAUCAAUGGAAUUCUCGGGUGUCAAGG	-0.666
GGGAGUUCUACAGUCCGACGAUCGUCCUGUGCUACACAUCGUAUGUACCGAAUCGGGAAAGGGAAAAAGGGUUUUUUUGGGAAAGUAUUAUGUUACGCCGUUCGGAUCUGCACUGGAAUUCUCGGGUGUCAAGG	-0.631
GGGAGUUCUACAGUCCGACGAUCCAAGUCCUGUGCUACACAUCGUAUGUACCGAAUCGGAAAAAGGUGGAAAAAAAGGAAAGUAUUAUGUUACGCCGUUCGGAUCUGCACUUCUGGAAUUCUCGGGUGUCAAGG	-0.702
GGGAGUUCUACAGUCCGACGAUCAGUCCUGUGCUACACAUCGUAUGUACCGAAUCGGGAAAAAGGGAAAAAGGAAAAAGGAAAGUAUUAUGUUACGCCGUUCGGAUCUGCACUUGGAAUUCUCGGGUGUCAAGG	-1.03
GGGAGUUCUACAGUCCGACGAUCCUGUGCUACACAUCGUAUGUACCGAAUCGGGUUUUUUUGGGGUUUUUUUGGGUUUUUUUGGGAAAGUAUUAUGUUACGCCGUUCGGAUCUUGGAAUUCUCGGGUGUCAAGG	1.51
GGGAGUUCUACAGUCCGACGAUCAAGUCCUGUGCUACACAUCGUAUGUACCGAAUCGGGGUUUGGGGAGGGGUUUGGGGAAAGUAUUAUGUUACGCCGUUCGGAUCUGCACUUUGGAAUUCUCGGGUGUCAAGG	-0.194
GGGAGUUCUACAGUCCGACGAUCACCAUGCAGGUGGGCAUCUUUGGGAAGUGGGGCAAGGGGGGGAUAGGGAGGGGGGUAACACUUUGGGAACAGGAGGUCCCAGGUCGUUUCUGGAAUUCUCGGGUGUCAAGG	-0.0452
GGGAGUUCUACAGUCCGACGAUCAGUCCUGUGCUACACAUCGUAUGUACCGAAUCAAAUUUUUAAACCCCCAAAUUUAAAAAAGUAUUAUGUUACGCCGUUCGGAUCUGCACUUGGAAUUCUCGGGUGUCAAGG	-0.562
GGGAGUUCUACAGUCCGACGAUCUGGCCCUGGUGGCAUGCGGGGAGGAAGAGGUGGCCUCAUGGAUCGUGGUGGUCCCGGCGGAAUGUUCAGAGGUGGCCGUGGUGGAGACAGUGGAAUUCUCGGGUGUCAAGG	0.16

Other studies, line by line
Substance	target	test	test system	conditions	how to read	endpoint	value
PhoQ, residues 284 288 289 292 302 303 SSYNSA	PhoP, residues 12 14 15 18 19 LHATL (Escherichia coli, UniProt P23836)	Sort-seq, item: YFP reporter	E. coli	PhoQ-PhoP variant library, together with: 10 µM Mg2+	reference: high Mg2+ state, higher = stronger signaling	fold induction	24

For quick reference, copied from above (series 5):
Strand	E-score
ACTTAGCG	0.0196
CTTCTCCC	-0.056
ATATGCGG	0.233
CCGGGTCG	-0.389
ACTCGTAT	0.096
CGGCAGGA	-0.424
AGATTGCG	0.0396
CTGCTTTC	-0.0402
TAAAGACA	0.0783
CACCTCAC	-0.0609
CAAATATC	0.276
TCGGCTAA	-0.0942
GAACGTTC	-0.186
CTGCCACC	-0.25
CAATACAG	0.0379
AATTGCAA	0.271
CTGTCTGC	-0.0996
